# Results gathered from unrelated publications.
# Parts stem from different laboratories: compare values within a part only.
# Chain of UniProt P78368 (whole entry, looked up): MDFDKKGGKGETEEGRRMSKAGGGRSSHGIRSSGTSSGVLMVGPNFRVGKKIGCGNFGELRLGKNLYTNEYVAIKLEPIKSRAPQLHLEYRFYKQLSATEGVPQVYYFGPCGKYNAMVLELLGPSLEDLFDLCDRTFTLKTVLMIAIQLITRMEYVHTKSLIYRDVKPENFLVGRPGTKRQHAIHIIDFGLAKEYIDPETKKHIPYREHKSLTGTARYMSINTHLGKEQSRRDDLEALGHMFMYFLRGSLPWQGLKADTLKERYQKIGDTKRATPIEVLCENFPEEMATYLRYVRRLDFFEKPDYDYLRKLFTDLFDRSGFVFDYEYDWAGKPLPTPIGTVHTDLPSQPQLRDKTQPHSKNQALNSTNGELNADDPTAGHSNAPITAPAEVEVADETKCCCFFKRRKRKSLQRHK
# Chain of UniProt Q8WTQ7 (whole entry, looked up): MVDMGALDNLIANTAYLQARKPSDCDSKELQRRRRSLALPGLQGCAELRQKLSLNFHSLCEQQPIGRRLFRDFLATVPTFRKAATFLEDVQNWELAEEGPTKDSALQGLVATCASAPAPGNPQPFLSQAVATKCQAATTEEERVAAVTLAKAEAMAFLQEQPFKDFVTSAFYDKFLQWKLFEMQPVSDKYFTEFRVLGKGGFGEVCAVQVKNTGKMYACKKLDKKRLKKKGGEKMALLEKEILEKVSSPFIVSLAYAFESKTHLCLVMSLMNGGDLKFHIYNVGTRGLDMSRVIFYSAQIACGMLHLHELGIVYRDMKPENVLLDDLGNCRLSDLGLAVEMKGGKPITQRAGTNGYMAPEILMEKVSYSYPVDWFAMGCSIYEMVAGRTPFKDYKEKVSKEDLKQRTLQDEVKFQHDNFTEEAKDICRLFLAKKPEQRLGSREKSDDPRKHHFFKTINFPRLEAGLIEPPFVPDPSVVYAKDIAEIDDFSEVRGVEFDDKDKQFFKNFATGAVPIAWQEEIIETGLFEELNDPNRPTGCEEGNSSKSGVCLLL
# Chain of UniProt P06239 (whole entry, looked up): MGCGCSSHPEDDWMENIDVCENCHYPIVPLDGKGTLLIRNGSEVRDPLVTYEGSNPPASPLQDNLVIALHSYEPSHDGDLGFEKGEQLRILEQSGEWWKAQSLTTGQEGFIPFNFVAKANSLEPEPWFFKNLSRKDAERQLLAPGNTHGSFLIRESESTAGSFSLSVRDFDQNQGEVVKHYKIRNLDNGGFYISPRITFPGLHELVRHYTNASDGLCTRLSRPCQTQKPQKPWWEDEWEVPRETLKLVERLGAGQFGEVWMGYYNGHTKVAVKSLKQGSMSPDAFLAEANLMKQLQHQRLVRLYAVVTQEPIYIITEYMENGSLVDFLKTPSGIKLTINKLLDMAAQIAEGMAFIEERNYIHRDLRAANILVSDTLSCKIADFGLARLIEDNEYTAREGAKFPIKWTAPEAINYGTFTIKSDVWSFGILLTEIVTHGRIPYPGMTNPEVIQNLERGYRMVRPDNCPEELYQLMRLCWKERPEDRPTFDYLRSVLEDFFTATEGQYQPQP
# Chain of UniProt Q15349 (whole entry, looked up): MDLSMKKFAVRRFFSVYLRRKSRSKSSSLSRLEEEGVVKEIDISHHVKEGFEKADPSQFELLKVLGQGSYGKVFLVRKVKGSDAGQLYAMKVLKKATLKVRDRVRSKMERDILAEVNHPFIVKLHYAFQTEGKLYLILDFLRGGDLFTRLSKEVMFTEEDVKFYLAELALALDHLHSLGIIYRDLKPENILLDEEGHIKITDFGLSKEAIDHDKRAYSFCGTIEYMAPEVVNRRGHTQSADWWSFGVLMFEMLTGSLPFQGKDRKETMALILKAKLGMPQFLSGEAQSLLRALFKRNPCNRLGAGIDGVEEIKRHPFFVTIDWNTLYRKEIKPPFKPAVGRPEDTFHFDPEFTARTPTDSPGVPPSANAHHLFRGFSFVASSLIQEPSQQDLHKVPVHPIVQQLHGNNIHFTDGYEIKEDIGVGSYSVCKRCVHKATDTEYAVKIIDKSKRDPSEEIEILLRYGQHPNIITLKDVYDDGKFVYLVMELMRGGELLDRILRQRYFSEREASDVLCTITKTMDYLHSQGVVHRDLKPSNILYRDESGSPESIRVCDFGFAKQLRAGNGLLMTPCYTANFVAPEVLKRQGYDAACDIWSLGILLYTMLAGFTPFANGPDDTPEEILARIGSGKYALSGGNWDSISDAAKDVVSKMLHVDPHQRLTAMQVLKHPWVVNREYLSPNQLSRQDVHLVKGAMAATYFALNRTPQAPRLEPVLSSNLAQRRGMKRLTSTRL
# Chain of UniProt Q9UL54 (whole entry, looked up): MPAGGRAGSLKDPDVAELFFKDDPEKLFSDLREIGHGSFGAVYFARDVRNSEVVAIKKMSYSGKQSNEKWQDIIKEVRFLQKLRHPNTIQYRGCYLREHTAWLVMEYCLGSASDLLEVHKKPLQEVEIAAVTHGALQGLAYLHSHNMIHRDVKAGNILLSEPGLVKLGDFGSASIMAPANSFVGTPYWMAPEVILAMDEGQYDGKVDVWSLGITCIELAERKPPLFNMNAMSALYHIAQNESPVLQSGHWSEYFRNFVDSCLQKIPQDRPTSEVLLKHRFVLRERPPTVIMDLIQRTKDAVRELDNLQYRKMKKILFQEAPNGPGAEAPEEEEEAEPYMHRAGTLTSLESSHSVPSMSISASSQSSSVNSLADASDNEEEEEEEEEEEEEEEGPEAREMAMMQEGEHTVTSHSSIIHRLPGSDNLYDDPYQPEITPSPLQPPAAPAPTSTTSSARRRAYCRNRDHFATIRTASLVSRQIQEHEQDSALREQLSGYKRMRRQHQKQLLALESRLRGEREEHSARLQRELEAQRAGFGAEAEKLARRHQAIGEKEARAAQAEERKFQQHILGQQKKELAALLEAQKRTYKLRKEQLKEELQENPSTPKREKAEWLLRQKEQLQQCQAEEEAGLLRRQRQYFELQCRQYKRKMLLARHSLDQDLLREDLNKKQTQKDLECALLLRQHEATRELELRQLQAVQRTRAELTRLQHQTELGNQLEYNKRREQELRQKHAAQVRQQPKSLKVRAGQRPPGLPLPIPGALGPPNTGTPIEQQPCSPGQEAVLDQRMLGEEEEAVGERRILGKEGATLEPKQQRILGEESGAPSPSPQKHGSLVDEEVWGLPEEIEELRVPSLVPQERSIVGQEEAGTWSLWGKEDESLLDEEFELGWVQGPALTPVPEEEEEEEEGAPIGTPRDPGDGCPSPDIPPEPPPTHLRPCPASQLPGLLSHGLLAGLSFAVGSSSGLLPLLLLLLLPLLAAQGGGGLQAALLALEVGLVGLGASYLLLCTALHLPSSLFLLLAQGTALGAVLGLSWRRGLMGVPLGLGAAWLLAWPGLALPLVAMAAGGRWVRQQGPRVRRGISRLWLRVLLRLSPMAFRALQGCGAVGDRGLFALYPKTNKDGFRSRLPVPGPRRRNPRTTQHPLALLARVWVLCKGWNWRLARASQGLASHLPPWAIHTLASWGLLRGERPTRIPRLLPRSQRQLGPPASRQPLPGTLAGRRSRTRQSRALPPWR
# Chain of UniProt Q02763 (whole entry, looked up): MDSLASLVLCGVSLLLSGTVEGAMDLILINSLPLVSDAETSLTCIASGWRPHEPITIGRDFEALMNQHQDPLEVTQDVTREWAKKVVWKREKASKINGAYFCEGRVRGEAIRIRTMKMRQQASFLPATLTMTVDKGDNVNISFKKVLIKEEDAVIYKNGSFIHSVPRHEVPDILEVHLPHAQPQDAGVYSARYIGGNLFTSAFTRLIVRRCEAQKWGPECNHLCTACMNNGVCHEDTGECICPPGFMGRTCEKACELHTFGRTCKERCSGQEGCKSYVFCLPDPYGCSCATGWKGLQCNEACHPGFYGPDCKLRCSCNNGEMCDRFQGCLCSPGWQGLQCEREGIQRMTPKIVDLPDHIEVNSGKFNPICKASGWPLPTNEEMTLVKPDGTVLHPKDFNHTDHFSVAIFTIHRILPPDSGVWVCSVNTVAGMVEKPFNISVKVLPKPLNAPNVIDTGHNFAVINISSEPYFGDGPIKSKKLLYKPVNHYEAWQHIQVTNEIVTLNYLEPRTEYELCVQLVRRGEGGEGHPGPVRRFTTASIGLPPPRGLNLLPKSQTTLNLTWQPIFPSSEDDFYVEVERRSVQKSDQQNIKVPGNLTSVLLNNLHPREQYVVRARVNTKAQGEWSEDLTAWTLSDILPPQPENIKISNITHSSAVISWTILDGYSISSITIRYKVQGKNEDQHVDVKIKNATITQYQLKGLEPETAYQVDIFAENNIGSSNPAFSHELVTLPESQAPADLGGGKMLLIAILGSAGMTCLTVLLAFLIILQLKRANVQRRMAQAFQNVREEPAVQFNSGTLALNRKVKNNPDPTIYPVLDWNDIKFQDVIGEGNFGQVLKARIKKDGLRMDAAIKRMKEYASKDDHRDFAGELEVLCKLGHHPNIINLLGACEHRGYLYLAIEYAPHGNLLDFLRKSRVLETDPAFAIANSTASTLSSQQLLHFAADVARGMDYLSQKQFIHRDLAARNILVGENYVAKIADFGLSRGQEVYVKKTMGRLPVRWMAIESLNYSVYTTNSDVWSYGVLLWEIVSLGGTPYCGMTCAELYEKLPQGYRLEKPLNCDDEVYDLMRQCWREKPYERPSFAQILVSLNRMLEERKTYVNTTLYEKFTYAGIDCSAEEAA

# Series 1 — method: RNA Bind-n-Seq; form: RNA; matrix: in vitro; concentration: 90 pmol; notes: 4-mer, random 30-nt RNA, single round; with: 3 µM DMDA-PatA, 2 mM ADP, 2 mM phosphate; reference: input library; reading: higher = stronger binding
# Target: ATP-dependent RNA helicase DDX3X, helicase core (DDX3X, Homo sapiens, UniProt O00571, residues 132-607)
# Chain of UniProt O00571 (132-607, looked up): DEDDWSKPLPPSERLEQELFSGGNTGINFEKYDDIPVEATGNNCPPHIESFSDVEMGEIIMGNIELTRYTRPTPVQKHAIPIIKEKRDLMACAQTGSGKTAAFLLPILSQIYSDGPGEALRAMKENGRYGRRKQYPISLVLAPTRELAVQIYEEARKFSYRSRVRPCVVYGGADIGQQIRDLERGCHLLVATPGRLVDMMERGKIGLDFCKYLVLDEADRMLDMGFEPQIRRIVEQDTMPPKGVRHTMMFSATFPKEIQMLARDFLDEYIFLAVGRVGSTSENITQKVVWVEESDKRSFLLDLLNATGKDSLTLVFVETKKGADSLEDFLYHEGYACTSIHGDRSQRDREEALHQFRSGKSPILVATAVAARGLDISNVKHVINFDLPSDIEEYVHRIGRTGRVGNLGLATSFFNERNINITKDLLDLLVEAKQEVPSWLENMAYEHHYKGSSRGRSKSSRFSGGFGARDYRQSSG
Oligonucleotide,4-mer enrichment [fold]
ACAU,0.933
CUUA,0.825
GUGU,1.32
CCAC,1.09
CCGG,0.85
UAAC,0.899
AGUG,1.18
CUUU,0.826

# Series 2 — method: aptamer microarray, sandwich; form: DNA with 2'F-ANA; matrix: in vitro; concentration: 200 nM; with: Cy3 exosite-II aptamer, 400 nM; reading: higher = stronger binding; oligonucleotide: GGTTGGTGTGGTTGG
# Target: Prothrombin, mature alpha-thrombin (F2, Homo sapiens, UniProt P00734)
# Notes: whole 15-mer aptamer, many near background
Modification,mean fluorescence intensity [a.u.]
2'F-ANA at 2 4 5 6 7 9 10 11 12 13 15,50.7
2'F-ANA at 1 4 6 8 9 10 12 13 14,71.9
2'F-ANA at 3 7 9,1100
2'F-ANA at 2 4 6 14 15,90.6
2'F-ANA at 1 2 5 9 11 13 14,50.1
2'F-ANA at 2 6 10 11 12 14 15,77.7
2'F-ANA at 1 5 7 10 12 14 15,110
2'F-ANA at 5 7 8 9 11 12 13 14 15,50.2

# Series 3 — read-out: enzyme activity; mode: inhibitor; concentration: 0.5 µM; reference: control
# Compound: CN(C)CCCn1cc(C2=C(c3c[nH]c4ccccc34)C(=O)NC2=O)c2ccccc21
target,remaining activity [%]
"Angiopoietin-1 receptor (TEK, Homo sapiens, UniProt Q02763)",99.7
"Fibroblast growth factor receptor 3 (FGFR3, Homo sapiens, UniProt P22607)",87.9
"Serine/threonine-protein kinase TBK1 (TBK1, Homo sapiens, UniProt Q9UHD2)",83.8
"Ribosomal protein S6 kinase alpha-2 (RPS6KA2, Homo sapiens, UniProt Q15349)",1.4
"Casein kinase I isoform gamma-2 (CSNK1G2, Homo sapiens, UniProt P78368)",90.3
"Casein kinase I isoform gamma-3 (CSNK1G3, Homo sapiens, UniProt Q9Y6M4)",96.9
"Activin receptor type-1B (ACVR1B, Homo sapiens, UniProt P36896)",106
"MAP kinase-activated protein kinase 2 (MAPKAPK2, Homo sapiens, UniProt P49137)",85.4
"Rhodopsin kinase GRK7 (GRK7, Homo sapiens, UniProt Q8WTQ7)",60.4
"Serine/threonine-protein kinase TAO2 (TAOK2, Homo sapiens, UniProt Q9UL54)",75.7
"Tyrosine-protein kinase JAK3 (JAK3, Homo sapiens, UniProt P52333)",81.5
"Mitogen-activated protein kinase kinase kinase 5 (MAP3K5, Homo sapiens, UniProt Q99683)",90.2
"Tyrosine-protein kinase Lck (LCK, Homo sapiens, UniProt P06239)",91.8

# Series 4 — read-out: cell-free assay; method: competition with immobilised ligand; concentration: 1 µM
# SMILES: CNC(=O)Nc1ccc2c(c1)[C@@]1(CC2)OC(=O)N(CC(=O)N(Cc2ccc(F)cc2)[C@@H](C)C(F)(F)F)C1=O
target,remaining binding [%]
"Phosphatidylinositol 4,5-bisphosphate 3-kinase catalytic subunit alpha isoform (PIK3CA, Homo sapiens, UniProt P42336, Q546K)",81
"LIM domain kinase 2 (LIMK2, Homo sapiens, UniProt P53671)",90
"Serine/threonine-protein kinase D3 (PRKD3, Homo sapiens, UniProt O94806)",100
"Glycogen synthase kinase-3 beta (GSK3B, Homo sapiens, UniProt P49841)",95
"Dual specificity tyrosine-phosphorylation-regulated kinase 1B (DYRK1B, Homo sapiens, UniProt Q9Y463)",100
"Hepatocyte growth factor receptor (MET, Homo sapiens, UniProt P08581, Y1235D)",93
"Myosin light chain kinase 2, skeletal/cardiac muscle (MYLK2, Homo sapiens, UniProt Q9H1R3)",77

# Some of these lines once more (series 3):
target,remaining activity [%]
"Ribosomal protein S6 kinase alpha-2 (RPS6KA2, Homo sapiens, UniProt Q15349)",1.4
"Casein kinase I isoform gamma-2 (CSNK1G2, Homo sapiens, UniProt P78368)",90.3
